Assay results of several laboratories.
Numbered parts are unrelated; each lists some results of a single study. Substitutions count along the parent as printed.

Series 1 — technique: RNA Bind-n-Seq; molecule type: RNA; matrix: in vitro; tested at: 1 µM; setting: whole 134-nt RNA, ends assumed; added: 150 mM KCl; baseline: input library; reading: higher = stronger binding; quantity: log2 enrichment
Target: Ras GTPase-activating protein-binding protein 1, C-terminal RGG region (G3BP1, Homo sapiens, UniProt Q13283)
Chain of UniProt Q13283 (whole entry, looked up): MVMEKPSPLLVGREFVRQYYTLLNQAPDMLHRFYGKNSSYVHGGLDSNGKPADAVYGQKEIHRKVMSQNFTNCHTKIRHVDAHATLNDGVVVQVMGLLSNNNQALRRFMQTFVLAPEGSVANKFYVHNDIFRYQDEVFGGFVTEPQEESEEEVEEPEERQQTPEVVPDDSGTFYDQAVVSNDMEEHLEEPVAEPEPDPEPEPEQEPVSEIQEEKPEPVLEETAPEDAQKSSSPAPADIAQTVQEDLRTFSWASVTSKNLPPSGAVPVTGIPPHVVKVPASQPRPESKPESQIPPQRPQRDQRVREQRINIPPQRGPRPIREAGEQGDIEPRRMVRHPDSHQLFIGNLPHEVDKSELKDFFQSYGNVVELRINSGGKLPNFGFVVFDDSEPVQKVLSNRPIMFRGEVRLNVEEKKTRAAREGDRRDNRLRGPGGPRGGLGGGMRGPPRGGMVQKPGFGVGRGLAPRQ
Constant ends, left off below: GGGAGUUCUACAGUCCGACGAUC … UGGAAUUCUCGGGUGUCAAGG
Strand = GUCCUGUGCUACACAUCGUAUGUACCGAAUCGGGCCCCCGGGGCCCCCGGGCCCCCGGAAAGUAUUAUGUUACGCCGUUCGGAUCUGCAC; result = -1.8
Strand = CCUCAAGUCCUGUGCUACACAUCGUAUGUACCGAAUCGGGGAGGGGAGGAGGAAAGUAUUAUGUUACGCCGUUCGGAUCUGCACUUCCAG; result = -0.643
Strand = GCAGGAAGUAAAAACAAAUGGAAAUGCUUCGGAUAGUGGCAGGGGUGGGGGUUGCUAAGGAAAGGGUGGGAAGGGAGUGGGUAAAGAGUU; result = 2.05
Strand = CCUCAAGUCCUGUGCUACACAUCGUAUGUACCGAAUCGGUUUGGAAAGGAGGAAAGUAUUAUGUUACGCCGUUCGGAUCUGCACUUCCAG; result = -0.594
Strand = UGUACAAACACUUUCCCAUCCCCCUCAUUAACCGGCUGGAGAAGCACUAUCUGGAUAUCAACACGGUGCUGGAGAAAUGGCAGAAGAGCA; result = -0.916
Strand = UAACUUUAGAGGAGGAUCUGAUGGAUAUGGCAGUGGACGUGGAUUUGGGGAUGGCUAUAAUGGGUAUGGAGGAGGACCUGGAGGAGGCAA; result = -1.02
Strand = GUGCUACACAUCGUAUGUACCGAAUCGGGGAAAAAAAGGGGAAAAAAAGGGGUUUUUUUGGGGAAAGUAUUAUGUUACGCCGUUCGGAUC; result = 0.904
Strand = UCCUGUGCUACACAUCGUAUGUACCGAAUCGGGGUUUGGGGUUUUUGGGGAAAAAGGGGAAAGUAUUAUGUUACGCCGUUCGGAUCUGCA; result = 1.95
Strand = GUCCUGUGCUACACAUCGUAUGUACCGAAUCGGGGCCCCCGGCCCCCGGGGCCCCCGGAAAGUAUUAUGUUACGCCGUUCGGAUCUGCAC; result = -2.08
Strand = AGUCCUGUGCUACACAUCGUAUGUACCGAAUCGGGGUUUGGGGAAAAAGGGGUGGGGAAAGUAUUAUGUUACGCCGUUCGGAUCUGCACU; result = 2.65

Series 2 — target: CCNE1, cyclin fold, Cln2 fusion (human); technique: yeast growth competition, sequencing; matrix: yeast; setting: strong parent motif; baseline: not given; reading: higher = stronger binding; quantity: normalised enrichment score
Starting sequence: E2F1 docking peptide (human); PPVKRRLDFETDH; partner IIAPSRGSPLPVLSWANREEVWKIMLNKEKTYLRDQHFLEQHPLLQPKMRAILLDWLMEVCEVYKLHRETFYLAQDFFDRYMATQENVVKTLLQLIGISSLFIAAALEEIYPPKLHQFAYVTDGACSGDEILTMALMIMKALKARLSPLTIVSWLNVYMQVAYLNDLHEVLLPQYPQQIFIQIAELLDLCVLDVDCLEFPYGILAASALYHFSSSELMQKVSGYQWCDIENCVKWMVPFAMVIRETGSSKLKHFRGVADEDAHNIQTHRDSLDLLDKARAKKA
Variant = PPVKRRLQFETDH [D8Q]; result = 6
Variant = PPVCRRLDFETDH [K4C]; result = 5.48
Variant = PPVLRRLDFETDH [K4L]; result = 2.5
Variant = PPVKRRLDFERDH [T11R]; result = 6.01
Variant = PPVKFRLDFETDH [R5F]; result = 0.217
Variant = PPVKRRLTFETDH [D8T]; result = 6.46
Variant = PPVKRVLDFETDH [R6V]; result = 6.39
Variant = PPVKRRVDFETDH [L7V]; result = 1.29
Variant = PPVKRRWDFETDH [L7W]; result = 0.244
Variant = PPVKRRLDFENDH [T11N]; result = 6.19
Variant = PPVKRRLDFEGDH [T11G]; result = 6.32
Variant = PPVPRRLDFETDH [K4P]; result = 2.54

Series 3 — technique: protein-binding microarray; molecule type: double-stranded DNA, one strand shown; matrix: in vitro; tested at: 2200 nM top; setting: 60-bp whole probe; added: salmon DNA 0.4 mg/ml; baseline: random background probes; reading: higher = stronger binding; quantity: fitted relative affinity; constant ends, left off below: GCCTAGCAC … GTCTTGATTCGCTTGACGCTGCTG
Target: Interferon regulatory factor 7, full length, phosphomimetic (IRF7, Homo sapiens, UniProt Q92985, residues 1-503, S471D/S472D/S475D/S476D/S477D/S483D/S484D/S487D)
Chain of UniProt Q92985 (whole entry, unmodified, looked up): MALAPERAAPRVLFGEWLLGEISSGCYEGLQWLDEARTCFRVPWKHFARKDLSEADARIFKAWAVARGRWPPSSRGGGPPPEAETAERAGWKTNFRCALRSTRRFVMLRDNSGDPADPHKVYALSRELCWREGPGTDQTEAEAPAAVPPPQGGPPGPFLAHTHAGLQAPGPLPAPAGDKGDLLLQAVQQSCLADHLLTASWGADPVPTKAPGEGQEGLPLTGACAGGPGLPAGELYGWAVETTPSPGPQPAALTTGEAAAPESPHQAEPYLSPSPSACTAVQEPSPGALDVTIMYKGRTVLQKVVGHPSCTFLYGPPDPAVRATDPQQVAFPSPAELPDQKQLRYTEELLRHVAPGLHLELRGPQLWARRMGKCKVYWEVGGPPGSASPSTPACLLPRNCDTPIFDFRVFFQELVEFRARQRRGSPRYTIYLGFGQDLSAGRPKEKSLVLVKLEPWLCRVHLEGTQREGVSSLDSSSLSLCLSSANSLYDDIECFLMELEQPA
Strand = GCCATTGTGGGTCTTGCAGAGTGCTAG; result = -0.27 z-score
Strand = GACGGTTTCGACACTGGGCACGTGCTA; result = 2.37 z-score
Strand = TTAGGTATCGGTTTCGGTTAGTGCTAG; result = 7.49 z-score
Strand = CTCTTTTTGCTTTCTTTATGGTGCTAG; result = 3.89 z-score
Strand = TTAGGTCTCCTTCTCCTATAGTGCTAG; result = 1.2 z-score
Strand = TCACCTCTTTCTTTGCTACTGTGCTAG; result = 2.37 z-score
Strand = TTTCTTTTATGCTCTTTCTACGTGCTA; result = 3.68 z-score
Strand = TGTACTTTCTATCTCTGTTTGTGCTAG; result = 5.64 z-score
Strand = TTAGGTCTCGGTATTGGTTAGTGCTAG; result = 0.779 z-score
Strand = CCCCATCTTGTTCCCAGAGAGTGCTAG; result = 1.18 z-score
Strand = ATAGGTTTCGGGTATCGGTTAGTGCTA; result = 6.51 z-score
Strand = GACGATTTCAGTATCCAGACGTGCTAG; result = 1.23 z-score
Strand = GACGGTTTCCTTAGCCTGACGTGCTAG; result = 1.46 z-score
Strand = AACGGTTCCGGTTTCGGGACGTGCTAG; result = 5.79 z-score
Strand = TTAGGGCTGGGGTTTCGGTTAGTGCTA; result = 2.18 z-score
Strand = GTGTTTTTCTCCTATTTAAGAGTGCTA; result = 2.26 z-score

Other studies, line by line
Substance = PhoQ, residues 284 288 289 292 302 303 AMDMFI; target = PhoP, residues 12 14 15 18 19 NQFFI (Escherichia coli, UniProt P23836); assay = Sort-seq, item: YFP reporter; test system = E. coli; setting = PhoQ-PhoP variant library, added: 10 µM Mg2+; scale = baseline: high Mg2+ state, higher = stronger signaling; quantity = fold induction; result = 0.621
